{"data": "Results collected from several papers", "note": "Every numbered part comes from another study and shows a few of its results, in no order. “And” joins repeats or separate records; there may be more than shown.", "sequence of UniProt Q9NYV4 (whole entry, looked up)": "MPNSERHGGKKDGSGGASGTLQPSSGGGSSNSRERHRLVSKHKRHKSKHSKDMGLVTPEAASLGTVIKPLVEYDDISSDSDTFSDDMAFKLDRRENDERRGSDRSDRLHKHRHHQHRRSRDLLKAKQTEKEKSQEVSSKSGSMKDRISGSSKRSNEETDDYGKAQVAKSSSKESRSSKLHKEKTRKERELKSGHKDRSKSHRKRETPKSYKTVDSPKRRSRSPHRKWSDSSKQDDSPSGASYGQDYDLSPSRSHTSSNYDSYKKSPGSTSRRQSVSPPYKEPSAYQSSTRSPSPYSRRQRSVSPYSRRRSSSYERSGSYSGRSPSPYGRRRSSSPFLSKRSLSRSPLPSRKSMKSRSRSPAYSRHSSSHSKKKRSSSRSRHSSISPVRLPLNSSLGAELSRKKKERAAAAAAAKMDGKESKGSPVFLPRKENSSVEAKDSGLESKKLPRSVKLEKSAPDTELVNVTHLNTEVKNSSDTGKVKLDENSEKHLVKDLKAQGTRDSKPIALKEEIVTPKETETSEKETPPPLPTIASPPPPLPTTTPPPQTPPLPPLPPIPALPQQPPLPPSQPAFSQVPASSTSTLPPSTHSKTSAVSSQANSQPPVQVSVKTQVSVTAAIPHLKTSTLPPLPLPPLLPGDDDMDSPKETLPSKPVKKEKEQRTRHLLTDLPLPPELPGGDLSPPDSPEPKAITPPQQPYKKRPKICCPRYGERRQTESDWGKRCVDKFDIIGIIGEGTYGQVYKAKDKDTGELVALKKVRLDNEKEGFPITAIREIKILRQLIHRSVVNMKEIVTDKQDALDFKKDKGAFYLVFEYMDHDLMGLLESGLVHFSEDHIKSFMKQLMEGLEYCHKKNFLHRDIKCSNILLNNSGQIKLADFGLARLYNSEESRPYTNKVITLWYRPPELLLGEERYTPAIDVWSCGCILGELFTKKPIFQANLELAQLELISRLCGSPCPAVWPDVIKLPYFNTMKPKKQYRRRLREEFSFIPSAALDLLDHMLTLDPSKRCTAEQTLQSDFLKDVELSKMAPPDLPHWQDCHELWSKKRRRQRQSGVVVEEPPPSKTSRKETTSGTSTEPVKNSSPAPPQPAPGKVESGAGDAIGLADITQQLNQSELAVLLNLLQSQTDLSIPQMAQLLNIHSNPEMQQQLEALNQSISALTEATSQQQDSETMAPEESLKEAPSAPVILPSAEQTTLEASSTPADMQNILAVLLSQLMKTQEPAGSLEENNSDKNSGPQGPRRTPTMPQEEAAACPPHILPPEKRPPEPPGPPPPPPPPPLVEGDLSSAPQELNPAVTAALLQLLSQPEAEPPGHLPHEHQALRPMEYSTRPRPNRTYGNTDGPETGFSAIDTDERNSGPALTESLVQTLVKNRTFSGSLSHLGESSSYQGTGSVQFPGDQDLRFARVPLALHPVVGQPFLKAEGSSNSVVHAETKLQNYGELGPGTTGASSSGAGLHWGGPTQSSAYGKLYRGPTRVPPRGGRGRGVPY"}
{"data": "Sample 1", "SMILES": "Cc1ccc(O)c(C)c1-c1cnc2[nH]c(-c3cnc(N4CCC5(CC4)CC(N4CCN(c6ccc(NC7CCC(=O)NC7=O)cc6F)CC4)CO5)nc3)cc2c1C#N (stereo not shown)", "target": "Membrane-associated tyrosine- and threonine-specific cdc2-inhibitory kinase (PKMYT1, Homo sapiens, UniProt Q99640)", "mode": "degrader", "sequence of UniProt Q99640 (whole entry, looked up)": "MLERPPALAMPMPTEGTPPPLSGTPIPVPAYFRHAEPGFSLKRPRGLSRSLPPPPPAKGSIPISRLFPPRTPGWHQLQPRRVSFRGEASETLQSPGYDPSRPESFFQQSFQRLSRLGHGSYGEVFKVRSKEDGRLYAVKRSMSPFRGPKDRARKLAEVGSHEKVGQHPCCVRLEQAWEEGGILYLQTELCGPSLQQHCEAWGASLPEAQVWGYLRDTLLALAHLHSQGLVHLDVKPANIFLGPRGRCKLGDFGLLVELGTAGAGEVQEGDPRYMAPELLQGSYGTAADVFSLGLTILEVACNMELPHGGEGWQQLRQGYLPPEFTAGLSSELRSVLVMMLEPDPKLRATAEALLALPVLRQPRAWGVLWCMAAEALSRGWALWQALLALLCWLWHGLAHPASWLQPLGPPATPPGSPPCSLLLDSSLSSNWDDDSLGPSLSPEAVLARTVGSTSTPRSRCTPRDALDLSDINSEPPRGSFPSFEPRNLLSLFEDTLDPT"}
{"cells": "MDA-MB-157", "DC50 [pM]": 1100}
{"cells": "HuCCT-1", "DC50 [pM]": 700}
{"cells": "HCC1599", "DC50 [pM]": 500}
{"data": "Sample 2", "Structure (SMILES)": "CCN1/C(=C/C=C2\\CCCC(/C=C/C3=[N+](CC)c4ccccc4C3(C)C)=C2NCCCCCCCCN2CCC(Nc3nc4ccccc4n3Cc3ccc(F)cc3)CC2)C(C)(C)c2ccccc21", "cell line": "U-87 MG", "concentration": "concentration not given", "relative to": "DMSO"}
{"measured": "BEND7 mRNA", "log2 fold change": 2.12}
{"measured": "GPR68 mRNA", "log2 fold change": 1.12}
{"measured": "PHF1 mRNA", "log2 fold change": 1.11}
{"measured": "USP6NL mRNA", "log2 fold change": 0.885}
{"measured": "TXNRD1 mRNA", "log2 fold change": 1.73}
{"measured": "FAM110A mRNA", "log2 fold change": -1.11}
{"measured": "ZNF777 mRNA", "log2 fold change": 0.836}
{"measured": "ERFE mRNA", "log2 fold change": -0.982}
{"measured": "ANXA6 mRNA", "log2 fold change": -1.34}
{"measured": "BAG3 mRNA", "log2 fold change": 1.15}
{"measured": "WNT7B mRNA", "log2 fold change": -2.96}
{"measured": "MICAL3 mRNA", "log2 fold change": -1.05}
{"measured": "KRT80 mRNA", "log2 fold change": -1.29}
{"measured": "SSH2 mRNA", "log2 fold change": -0.911}
{"measured": "XPOT mRNA", "log2 fold change": 0.832}
{"measured": "DEDD2 mRNA", "log2 fold change": 1.87}
{"data": "Sample 3", "SMILES": "C[C@@H]1CN(c2ccc(-c3cc(C(=O)NCCOCCOCCOCCOCCOCCOCCNC(=O)/C=C/c4[nH]cc(C(=O)N[C@@H](CC(N)=O)c5ccc(F)c(Cl)c5)c4-c4ccc(Cl)cc4F)ccc3F)cc2NC(=O)c2ccc(F)cc2C(F)(F)F)C[C@H](C)N1C", "read-out": "thermal unfolding", "technique": "differential scanning fluorimetry", "concentration": "5.5 µM", "reading": "higher = more unfolded", "WDR5": "WD repeat-containing protein 5 (WDR5, Homo sapiens, UniProt P61964)", "DCAF1": "DDB1- and CUL4-associated factor 1 (DCAF1, Homo sapiens, UniProt Q9Y4B6)", "sequence of UniProt Q9Y4B6 (whole entry, looked up)": "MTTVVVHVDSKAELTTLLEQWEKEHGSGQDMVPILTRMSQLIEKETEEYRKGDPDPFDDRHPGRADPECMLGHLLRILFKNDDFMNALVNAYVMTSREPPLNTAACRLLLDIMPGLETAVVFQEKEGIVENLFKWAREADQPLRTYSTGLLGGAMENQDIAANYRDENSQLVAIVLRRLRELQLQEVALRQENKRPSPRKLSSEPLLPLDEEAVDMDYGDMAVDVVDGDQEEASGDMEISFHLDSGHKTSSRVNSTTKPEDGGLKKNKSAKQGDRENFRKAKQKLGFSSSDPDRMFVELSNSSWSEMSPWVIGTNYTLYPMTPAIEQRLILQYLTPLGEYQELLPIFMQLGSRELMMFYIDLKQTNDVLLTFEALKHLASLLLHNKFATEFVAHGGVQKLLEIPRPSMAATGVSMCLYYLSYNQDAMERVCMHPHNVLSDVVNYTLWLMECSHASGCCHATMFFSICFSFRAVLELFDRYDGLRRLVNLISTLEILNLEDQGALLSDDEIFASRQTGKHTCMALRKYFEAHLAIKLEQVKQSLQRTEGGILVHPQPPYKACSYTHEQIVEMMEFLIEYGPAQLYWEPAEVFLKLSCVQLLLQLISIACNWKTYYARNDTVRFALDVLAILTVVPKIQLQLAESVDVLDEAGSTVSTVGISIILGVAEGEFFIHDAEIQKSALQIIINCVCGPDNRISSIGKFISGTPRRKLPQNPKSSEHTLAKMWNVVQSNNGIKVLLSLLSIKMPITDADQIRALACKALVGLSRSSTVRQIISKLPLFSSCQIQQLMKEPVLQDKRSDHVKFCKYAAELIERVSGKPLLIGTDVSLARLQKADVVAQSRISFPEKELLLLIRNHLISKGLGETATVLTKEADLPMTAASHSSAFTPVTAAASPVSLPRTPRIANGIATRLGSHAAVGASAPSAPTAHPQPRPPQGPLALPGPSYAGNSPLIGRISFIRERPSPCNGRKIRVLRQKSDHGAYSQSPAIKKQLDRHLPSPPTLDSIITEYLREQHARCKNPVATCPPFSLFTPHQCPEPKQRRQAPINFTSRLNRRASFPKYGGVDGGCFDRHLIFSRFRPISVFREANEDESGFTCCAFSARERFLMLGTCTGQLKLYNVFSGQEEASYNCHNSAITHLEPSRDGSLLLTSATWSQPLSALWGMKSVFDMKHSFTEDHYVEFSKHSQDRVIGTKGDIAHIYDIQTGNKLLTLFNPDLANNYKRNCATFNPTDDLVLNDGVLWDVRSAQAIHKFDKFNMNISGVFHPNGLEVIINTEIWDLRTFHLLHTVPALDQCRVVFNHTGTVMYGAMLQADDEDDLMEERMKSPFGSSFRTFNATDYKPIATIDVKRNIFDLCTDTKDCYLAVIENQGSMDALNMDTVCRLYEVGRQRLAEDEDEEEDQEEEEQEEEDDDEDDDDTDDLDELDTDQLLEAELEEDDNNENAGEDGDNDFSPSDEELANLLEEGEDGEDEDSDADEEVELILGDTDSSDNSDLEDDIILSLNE"}
{"target": "WDR5", "temperature": "50.6 °C", "SYPRO Orange fluorescence [a.u.]": 16600}
{"target": "WDR5", "temperature": "93.61 °C", "SYPRO Orange fluorescence [a.u.]": 49800}
{"target": "WDR5", "temperature": "42.2 °C", "SYPRO Orange fluorescence [a.u.]": 14300}
{"target": "DCAF1", "temperature": "48.6 °C", "SYPRO Orange fluorescence [a.u.]": 17000}
{"target": "WDR5", "temperature": "81.21 °C", "SYPRO Orange fluorescence [a.u.]": 65700}
{"target": "WDR5", "temperature": "47.4 °C", "SYPRO Orange fluorescence [a.u.]": 15300}
{"target": "WDR5", "temperature": "70.21 °C", "SYPRO Orange fluorescence [a.u.]": 28100}
{"target": "WDR5", "temperature": "54.21 °C", "SYPRO Orange fluorescence [a.u.]": 16900}
{"target": "DCAF1", "temperature": "66.01 °C", "SYPRO Orange fluorescence [a.u.]": 52700}
{"target": "WDR5", "temperature": "90.81 °C", "SYPRO Orange fluorescence [a.u.]": 53800}
{"target": "WDR5", "temperature": "53.61 °C", "SYPRO Orange fluorescence [a.u.]": 16700}
{"data": "Mixed results"}
{"SMILES": "CCn1cnc2c(NCc3nc4ccc(F)c(F)c4[nH]3)nc(N3CCn4ncnc4C3)nc21", "tested on": "MDA-MB-231", "assay": "degrader, western blot, measured: cyclin K", "conditions": "50 nM, 24 h", "measurement": "degradation", "result": "69.4%"}
{"SMILES": "CCOc1ccc2nc(Sc3nc(Nc4ccc(I)cc4)nc(N4CCOCC4)n3)sc2c1", "tested on": "Gaucher fibroblasts", "assay": "qPCR, measured: GBA1", "conditions": "0.1 µM, 24 h, unit not given", "scale": "relative to: DMSO", "measurement": "mRNA level", "result": "1.26 and 0.992 and 0.838 and 1.28 and 1.15 and 1.67 and 1.52"}
{"SMILES": "CCN(CC)CC(=O)N1CCN(c2nc(NCc3nc4cc(Cl)c(Cl)cc4[nH]3)c3ncn(CC)c3n2)CC1", "tested on": "MDA-MB-231", "assay": "degrader, DIA proteomics", "conditions": "100 nM, 2 h", "scale": "relative to: DMSO", "measurement": "cyclin K level fold change", "result": 0.064}
{"SMILES": "CCn1cnc2c(NCc3nc4cc(F)c(F)cc4[nH]3)nc(N3CCn4ncnc4C3)nc21", "tested on": "Cyclin-dependent kinase 12, with cyclin K (CDK12, Homo sapiens, UniProt Q9NYV4)", "assay": "inhibitor, ADP-Glo kinase", "measurement": "IC50", "result": "230000 pM"}
{"note": "For quick reference, copied from above (sample 3):"}
{"target": "WDR5", "temperature": "50.6 °C", "SYPRO Orange fluorescence [a.u.]": 16600}
{"target": "WDR5", "temperature": "47.4 °C", "SYPRO Orange fluorescence [a.u.]": 15300}
